# Assay results of several laboratories.
# Several values in a cell are separate wells, animals, samples, runs or records. ± marks the error that the study gave.
# Oprd1: Delta-type opioid receptor (Oprd1, Rattus norvegicus, UniProt P33533)
# UniProt P33533, sequence (whole entry, looked up): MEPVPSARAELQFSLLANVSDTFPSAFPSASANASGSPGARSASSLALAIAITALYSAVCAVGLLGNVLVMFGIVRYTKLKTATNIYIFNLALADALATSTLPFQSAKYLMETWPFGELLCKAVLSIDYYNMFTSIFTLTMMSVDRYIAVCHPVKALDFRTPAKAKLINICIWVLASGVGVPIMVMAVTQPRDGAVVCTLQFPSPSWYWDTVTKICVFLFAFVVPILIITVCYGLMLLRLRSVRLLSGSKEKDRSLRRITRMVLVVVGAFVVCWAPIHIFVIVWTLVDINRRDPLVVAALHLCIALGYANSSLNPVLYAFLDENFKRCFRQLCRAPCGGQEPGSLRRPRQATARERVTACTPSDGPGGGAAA
# UniProt Q8BLF1, sequence (whole entry, looked up): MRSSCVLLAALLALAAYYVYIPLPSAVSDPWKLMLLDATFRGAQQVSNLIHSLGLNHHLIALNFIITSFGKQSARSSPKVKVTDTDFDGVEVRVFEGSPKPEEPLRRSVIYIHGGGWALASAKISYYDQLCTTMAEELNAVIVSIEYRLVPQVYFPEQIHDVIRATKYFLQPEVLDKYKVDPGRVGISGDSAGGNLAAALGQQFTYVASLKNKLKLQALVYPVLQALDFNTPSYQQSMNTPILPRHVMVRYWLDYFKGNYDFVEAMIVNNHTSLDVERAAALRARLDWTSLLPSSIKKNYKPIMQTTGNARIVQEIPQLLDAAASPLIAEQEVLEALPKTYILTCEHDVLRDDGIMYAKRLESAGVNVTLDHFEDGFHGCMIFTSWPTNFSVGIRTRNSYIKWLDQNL
# UniProt D0VWV4, sequence (whole entry, looked up): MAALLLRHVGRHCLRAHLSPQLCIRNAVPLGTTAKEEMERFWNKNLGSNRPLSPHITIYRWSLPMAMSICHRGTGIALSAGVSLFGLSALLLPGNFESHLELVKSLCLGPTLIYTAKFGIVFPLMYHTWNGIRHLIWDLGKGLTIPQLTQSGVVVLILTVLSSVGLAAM
# UniProt Q007T0, sequence (whole entry, looked up): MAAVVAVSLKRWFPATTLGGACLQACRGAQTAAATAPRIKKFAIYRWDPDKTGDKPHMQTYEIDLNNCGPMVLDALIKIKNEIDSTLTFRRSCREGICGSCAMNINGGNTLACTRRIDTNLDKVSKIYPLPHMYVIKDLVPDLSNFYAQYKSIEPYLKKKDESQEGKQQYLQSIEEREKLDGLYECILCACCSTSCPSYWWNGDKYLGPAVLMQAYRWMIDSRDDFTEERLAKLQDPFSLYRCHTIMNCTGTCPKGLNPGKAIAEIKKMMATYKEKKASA
# UniProt A5GZW8, sequence (whole entry, looked up): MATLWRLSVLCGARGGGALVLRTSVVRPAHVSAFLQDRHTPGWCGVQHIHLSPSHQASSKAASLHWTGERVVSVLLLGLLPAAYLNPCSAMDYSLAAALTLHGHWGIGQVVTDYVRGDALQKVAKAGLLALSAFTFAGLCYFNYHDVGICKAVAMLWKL
# UniProt P10721, sequence (whole entry, unmodified, looked up): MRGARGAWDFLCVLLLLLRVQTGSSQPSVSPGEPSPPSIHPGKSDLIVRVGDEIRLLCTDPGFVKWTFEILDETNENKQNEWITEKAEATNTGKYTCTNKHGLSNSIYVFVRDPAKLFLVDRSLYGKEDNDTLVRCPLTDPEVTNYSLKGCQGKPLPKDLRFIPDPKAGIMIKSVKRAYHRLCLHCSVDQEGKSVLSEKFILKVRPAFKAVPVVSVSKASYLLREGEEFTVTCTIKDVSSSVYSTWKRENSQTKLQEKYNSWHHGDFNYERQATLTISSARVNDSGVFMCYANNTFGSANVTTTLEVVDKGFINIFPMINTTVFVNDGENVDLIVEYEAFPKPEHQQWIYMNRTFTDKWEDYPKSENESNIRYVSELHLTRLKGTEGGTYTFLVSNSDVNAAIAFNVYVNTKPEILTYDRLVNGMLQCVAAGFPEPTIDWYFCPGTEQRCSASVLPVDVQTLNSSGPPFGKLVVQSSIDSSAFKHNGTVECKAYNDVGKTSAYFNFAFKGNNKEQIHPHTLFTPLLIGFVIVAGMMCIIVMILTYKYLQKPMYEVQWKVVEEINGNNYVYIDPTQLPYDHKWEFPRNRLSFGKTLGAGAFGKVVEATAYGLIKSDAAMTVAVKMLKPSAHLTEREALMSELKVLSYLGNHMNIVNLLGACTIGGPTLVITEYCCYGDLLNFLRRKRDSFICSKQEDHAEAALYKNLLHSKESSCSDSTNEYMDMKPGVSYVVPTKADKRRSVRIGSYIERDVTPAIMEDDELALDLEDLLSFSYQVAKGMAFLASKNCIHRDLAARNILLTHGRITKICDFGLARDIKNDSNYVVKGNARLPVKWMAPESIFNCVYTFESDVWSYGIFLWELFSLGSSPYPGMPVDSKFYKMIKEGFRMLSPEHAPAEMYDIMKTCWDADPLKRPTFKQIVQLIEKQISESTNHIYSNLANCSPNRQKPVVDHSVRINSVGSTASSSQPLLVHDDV
# UniProt P53778, sequence (whole entry, looked up): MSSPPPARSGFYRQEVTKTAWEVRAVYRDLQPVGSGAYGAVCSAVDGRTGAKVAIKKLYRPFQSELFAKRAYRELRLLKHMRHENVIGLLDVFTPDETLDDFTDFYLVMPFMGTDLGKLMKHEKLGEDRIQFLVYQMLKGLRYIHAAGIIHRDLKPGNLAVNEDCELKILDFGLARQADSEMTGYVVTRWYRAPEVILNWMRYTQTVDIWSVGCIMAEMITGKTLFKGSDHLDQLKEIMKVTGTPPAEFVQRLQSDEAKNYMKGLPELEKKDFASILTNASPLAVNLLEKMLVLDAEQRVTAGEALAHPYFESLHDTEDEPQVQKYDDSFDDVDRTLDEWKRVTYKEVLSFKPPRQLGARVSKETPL
# UniProt Q9UM07, sequence (whole entry, looked up): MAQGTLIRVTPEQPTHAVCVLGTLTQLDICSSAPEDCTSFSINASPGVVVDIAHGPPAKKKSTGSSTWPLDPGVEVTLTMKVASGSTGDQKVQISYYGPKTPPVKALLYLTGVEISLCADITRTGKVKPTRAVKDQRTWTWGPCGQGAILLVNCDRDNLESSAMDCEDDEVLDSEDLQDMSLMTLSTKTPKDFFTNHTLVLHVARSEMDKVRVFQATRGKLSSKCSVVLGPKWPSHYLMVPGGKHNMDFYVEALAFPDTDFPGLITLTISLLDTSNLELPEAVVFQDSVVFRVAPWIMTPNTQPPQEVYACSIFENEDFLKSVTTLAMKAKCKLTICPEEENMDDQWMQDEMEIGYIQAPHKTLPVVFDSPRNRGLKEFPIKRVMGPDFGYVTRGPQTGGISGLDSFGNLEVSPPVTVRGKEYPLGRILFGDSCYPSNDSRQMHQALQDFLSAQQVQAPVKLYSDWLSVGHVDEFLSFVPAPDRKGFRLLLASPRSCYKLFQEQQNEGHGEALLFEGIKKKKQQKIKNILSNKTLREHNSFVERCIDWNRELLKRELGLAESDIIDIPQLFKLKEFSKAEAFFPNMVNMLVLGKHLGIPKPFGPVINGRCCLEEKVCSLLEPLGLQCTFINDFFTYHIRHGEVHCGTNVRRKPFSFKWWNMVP
# UniProt P46734, sequence (whole entry, looked up): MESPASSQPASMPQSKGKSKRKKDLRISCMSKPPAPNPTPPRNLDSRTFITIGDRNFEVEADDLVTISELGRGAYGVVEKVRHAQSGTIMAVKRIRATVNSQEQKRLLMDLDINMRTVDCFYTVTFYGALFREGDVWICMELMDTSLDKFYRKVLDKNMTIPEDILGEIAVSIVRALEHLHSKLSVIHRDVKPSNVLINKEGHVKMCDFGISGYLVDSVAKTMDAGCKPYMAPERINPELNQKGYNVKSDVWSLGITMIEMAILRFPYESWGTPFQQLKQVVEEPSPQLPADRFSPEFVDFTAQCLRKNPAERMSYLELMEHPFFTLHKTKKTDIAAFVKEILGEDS
# UniProt P51617, sequence (whole entry, looked up): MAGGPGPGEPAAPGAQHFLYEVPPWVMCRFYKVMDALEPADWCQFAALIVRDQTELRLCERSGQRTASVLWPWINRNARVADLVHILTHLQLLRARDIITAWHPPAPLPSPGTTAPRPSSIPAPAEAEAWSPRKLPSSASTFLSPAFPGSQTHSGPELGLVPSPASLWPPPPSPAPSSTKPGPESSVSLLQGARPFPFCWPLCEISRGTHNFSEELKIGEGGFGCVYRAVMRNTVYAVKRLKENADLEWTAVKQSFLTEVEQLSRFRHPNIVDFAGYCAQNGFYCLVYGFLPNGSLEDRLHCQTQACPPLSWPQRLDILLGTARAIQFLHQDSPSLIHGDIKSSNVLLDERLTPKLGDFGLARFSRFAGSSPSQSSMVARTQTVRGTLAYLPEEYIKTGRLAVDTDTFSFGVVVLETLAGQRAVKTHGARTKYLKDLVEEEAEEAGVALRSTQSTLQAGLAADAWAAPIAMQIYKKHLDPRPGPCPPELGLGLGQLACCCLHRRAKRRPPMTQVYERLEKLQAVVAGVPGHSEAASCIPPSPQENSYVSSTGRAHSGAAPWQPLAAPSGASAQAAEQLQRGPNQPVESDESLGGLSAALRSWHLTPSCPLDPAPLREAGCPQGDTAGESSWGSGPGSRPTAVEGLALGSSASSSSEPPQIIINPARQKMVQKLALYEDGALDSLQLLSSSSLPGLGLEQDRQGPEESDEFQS
# UniProt P35348, sequence (whole entry, looked up): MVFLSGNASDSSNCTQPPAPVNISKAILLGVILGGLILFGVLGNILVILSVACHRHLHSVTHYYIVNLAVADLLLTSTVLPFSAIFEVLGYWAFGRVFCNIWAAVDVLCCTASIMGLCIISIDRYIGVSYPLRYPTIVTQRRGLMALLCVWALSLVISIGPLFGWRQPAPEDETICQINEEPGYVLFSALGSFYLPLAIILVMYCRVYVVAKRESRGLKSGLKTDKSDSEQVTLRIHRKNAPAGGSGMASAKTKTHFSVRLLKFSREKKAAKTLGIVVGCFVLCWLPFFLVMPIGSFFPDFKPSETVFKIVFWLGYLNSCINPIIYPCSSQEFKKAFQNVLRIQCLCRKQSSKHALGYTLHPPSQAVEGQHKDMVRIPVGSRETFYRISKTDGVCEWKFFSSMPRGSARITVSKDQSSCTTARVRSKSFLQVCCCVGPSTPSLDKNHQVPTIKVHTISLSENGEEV
Compound,target or system,test,system,setting,scale,quantity,result
Oc1ccc(C[C@@H]2CN([C@H](Cc3ccc4ccccc4c3)CN3CCC[C@H]3CN3CCNC[C@@H]3Cc3ccc4ccccc4c3)CCN2CCc2ccc(Cl)c(Cl)c2)cc1,Oprd1,radioligand binding,rat brain membranes,"500 nM, pH 7.5, 25 °C, together with: 2 nM [3H]DPDPE",,remaining binding,86.2%
Cc1cc(-c2ccc3ccccc3c2)nnc1NCCN1CCN(C)CC1,"ADRA1A (Homo sapiens, UniProt P35348)",antagonist,,10000 nM,baseline: control,activity,3%
O=C1NC2(CC2)COc2ncc(F)cc2[C@H]2COCCN2c2ccn3ncc1c3n2,,,"Sprague-Dawley rat, male, epididymides","oral, 5 mg/kg/day, end of treatment, 4-week repeated-dose toxicity",,epididymis weight,1.03 ± 0.066 g
CCN(N=Cc1cnc2ccc(Br)cn12)S(=O)(=O)c1cc([N+](=O)[O-])ccc1C,"PIK3CB (Homo sapiens, UniProt P42338, M783K)",luminescence,,,baseline: wild-type p110β,IC50 fold decrease,2 fold
Oc1ccc(C[C@@H]2CN([C@@H](CC3CCCCC3)CN3CCC[C@H]3CN3CCNC[C@@H]3Cc3ccc4ccccc4c3)CCN2CCC23CC4CC(CC(C4)C2)C3)cc1,Oprd1,radioligand binding,rat brain membranes,"500 nM, pH 7.5, 25 °C, together with: 2 nM [3H]DPDPE",,remaining binding,84.3%
CC(C)[C@H]1NC(=O)C[C@H]2/C=C/CCSSC[C@@H](NC1=O)C(=O)N[C@H](Cc1cccc3ccccc13)C(=O)NCC(=O)O2,"TNIK (Homo sapiens, UniProt Q9UKE5)","enzyme activity, inhibitor",,10 µM,,inhibition,-3.7%
CS(C)(=O)=Nc1ccc(-c2ccc(-c3nc4cc(O[C@@H]5CO[C@H]6[C@@H]5OC[C@H]6O)[nH]c4cc3F)cc2)cc1,"GALR1 (Homo sapiens, UniProt P47211)","ligand displacement, radioligand",,10 µM,,inhibition,-10%
O=C1NC(=O)c2c1c1cc(F)c[n+]3c1c1c2c2cc(O)ccc2[n]1[Ru-4]312([N]=C=S)[S+]3CC[S+]1CC[S+]2CC3 (stereo not drawn),"PIM3 (Homo sapiens, UniProt Q86V86)",enzyme activity,,"100 nM, human enzyme, together with: 10 µM ATP",baseline: untreated,remaining activity,14%
CCc1nnc(-c2c(OC)cc(-c3cnc4cc(-c5cnn(C)c5)ccn34)cc2OC)o1,"Neuronal acetylcholine receptor; alpha4/beta2 (Homo sapiens, UniProt P17787+P43681)",radioligand binding,,10 µM,,inhibition of specific binding,-4%
[CH3][Ti+2][O]C(=O)c1ccc([S][Au][PH](c2ccccc2)(c2ccccc2)c2ccccc2)cc1.c1cc[cH-]c1.c1cc[cH-]c1,"MAPK12 (Homo sapiens, UniProt P53778)",kinase activity,,"1 µM, together with: ATP 10 µM",,remaining activity,111%
CON(C(=O)c1cn(C)nc1C(F)F)C(C)Cc1c(Cl)cc(Cl)cc1Cl (stereo not drawn),"SDHD/SDHC/SDHB (Sus scrofa, UniProt A5GZW8+D0VWV4+Q007T0)","enzyme activity, inhibitor, DCIP reduction",pig,"1 µM, together with: DCIP 10 µM",,reaction velocity,0.00127 µM/s and 0.00107 µM/s
COc1ccccc1-c1n[nH]c2nc(NC3CCN(C(=O)Cc4ccc(F)cc4F)CC3)ncc12,"mitogen-activated protein kinase 9 (Leishmania donovani, UniProt A0A3Q8IB74)","affinity bead binding, bead competition pull-down",Leishmania donovani extract,"10 µM, analogue affinity beads",baseline: vehicle,relative binding,0.45
CCCC[C@H]1CNCCN1C[C@@H]1CCCN1C[C@@H](Cc1ccc2ccccc2c1)N1CCN(CCCC2CCCC2)[C@H]([C@H](C)CC)C1,Oprd1,radioligand binding,rat brain membranes,"500 nM, pH 7.5, 25 °C, together with: 2 nM [3H]DPDPE",,remaining binding,92%
CCN1CCN(Cc2ccc(C(=O)Nc3ccc(C)c(NCc4cnc5[nH]ccc5c4OC)c3)cc2C(F)(F)F)CC1,"PRPF4B (Homo sapiens, UniProt Q13523)","binding, competition with immobilised ligand",,1 µM,,remaining binding,87%
CCCCCc1cc(O)cc(O)c1C(=O)O,"uncharacterized protein (Cannabis sativa, UniProt A0A803QQQ8)","substrate, LC-MS product formation",,"30 °C, together with: UDP-glucose 1 mM",,Km,37.4 ± 20.2 µM
CC(C)CC(O)(CC(C)C)c1cn(C(=O)N2CCCC2)nn1,"Neutral cholesterol ester hydrolase 1 (Mus musculus, UniProt Q8BLF1)","probe labelling, inhibitor, competitive ABPP-SILAC, measured: Aadacl1",mouse T cells,"concentration not given, 4 h, single peptide","baseline: treated over DMSO cells, lower = stronger inhibition",SILAC activity ratio,1.25 and 1.43 and 1.3 and 1.23 and 1.02 and 1.33
N[C@@H](Cc1ccccc1)P(=O)(O)O,"PAL1 (Petroselinum crispum, UniProt P24481, Y110F)","binding, ITC",,,,-TΔS,1.5 kcal/mol
C[N+](C)(C)CCCCCNc1ccc([N+](=O)[O-])c2nonc12,"emrE (Escherichia coli, UniProt P23895)",proteoliposome transport,,"concentration not given, 200 s",,fluorescence quench after dithionite,80%
C[C@H](NCc1ccc(-c2ccc(C(F)(F)F)cc2)cc1)C(N)=O,"KIT (Homo sapiens, UniProt P10721)","cell-free assay, competition with immobilised ligand",,1 µM,,inhibition,0%
CC#CC(=O)NC[C@H](NC(=O)[C@H](CC1CCCCC1)NC(=O)[C@H](CCC(N)=O)NC(C)=O)C(=O)N[C@@H](CC(C)C)C(=O)N[C@@H](Cc1ccccc1)C(=O)O,"Beta sliding clamp (Escherichia coli, UniProt P0A988, H175G)",isothermal titration calorimetry,,25 °C,,ΔH,-9.7 kcal/mol
C#CCCCCOc1ccc2c(c1)CCCN2C(=O)CCl,"SCARB2 (Homo sapiens, UniProt Q14108)",mass spectrometry profiling,H460 cell lysate,"100 µM over 10 µM, UniProt Q14108",baseline: high over low concentration,reactivity ratio,1.2
COc1ccc(F)cc1S(=O)(=O)Nc1cnc2c(c1)C(=O)NCCO2,nicotinic acetylcholine receptor,radioligand binding,,10 µM,,inhibition,-3%
Cc1ccc(N2CC3CCC(C2)N3C)cc1C(=O)N[C@H](C)c1cc(-c2cnn(C)c2)nc2ccccc12,"Cathepsin K (CTSK, Homo sapiens, UniProt P43235)","enzyme activity, inhibitor",,30 µM,,remaining activity,87.9%
CC(=O)N[C@H](C(=O)N[C@@H](CCCNC(=N)N)C(=O)NCC(=O)N[C@@H](CO)C(=O)N[C@@H](CS)C(=O)N[C@@H](CCCNC(=N)N)C(=O)N[C@@H](CCCCN)C(=O)N[C@@H](CCCNC(=N)N)C(=O)N[C@@H](CC(N)=O)C(=O)N[C@@H](CCCNC(=N)N)C(=O)N[C@@H](CO)C(=O)N1CCC[C@H]1C(=O)N[C@@H](CCC(=O)O)C(=O)N[C@@H](CCCNC(=N)N)C(N)=O)[C@@H](C)O,"WDR5 (Homo sapiens, UniProt P61964)","binding, competitor of LANA peptide, ITC",,"pH 7.0, 20 °C, WIN motif peptide",,ΔH,-3.64 kcal/mol
COc1c(N2CC3CCCNC3C2)c(F)cc2c(=O)c(C(=O)OCc3ccc([N+](=O)[O-])s3)cn(C3CC3)c12 (stereo not drawn),"nfsB (Escherichia coli K-12, UniProt P38489)",substrate,,together with: NADH 100 µM,,initial rate,0.77 ± 0.016 µM/min
CC(C)C[C@@H]1NC(=O)[C@H](Cc2ccc(O)cc2)NC(=O)[C@H](CC(N)=O)NC(=O)[C@H](CO)NC(=O)[C@@H](NC(=O)[C@@H]2CCCN2C(=O)[C@H](CC(N)=O)NC(=O)[C@H](Cc2ccc(O)cc2)NC(=O)[C@H](CCCCN)NC(=O)[C@H](CO)NC(=O)[C@H](C)NC(=O)[C@@H](N)CC(N)=O)CSC1=O,"Accessory gene regulator protein C (Staphylococcus epidermidis, UniProt Q8VSX2)",,,concentration not given,,activity,inactive
CCn1nc(Cl)c2c1-c1cnc(N)c(c1)O[C@H](C)c1cc(F)ccc1-c1nn(C)cc1C2,"IRAK1 (Homo sapiens, UniProt P51617)","kinase activity, inhibitor",,,baseline: IC50 IRAK1 over IC50 ALK,selectivity ratio,361 fold
CN(C)[C@H]1C[C@@]23CC[C@@]4(O2)C(=CC[C@]2(C)[C@@H](c5ccc6ccncc6c5)CC[C@H]24)C=C3[C@@H](O)[C@@H]1O,"MAP2K3 (Homo sapiens, UniProt P46734)","ATP probe labelling, inhibitor, KiNativ profiling",,0.1 µM,,inhibition,3%
N[C@H](C(=O)N1CCCC1)C1CCN(c2nccc3c(-c4ncc(Cl)cc4Cl)cccc23)CC1,"PADI4 (Homo sapiens, UniProt Q9UM07)",enzyme activity,,"0.6144 µM, low-affinity site, together with: Ca2+ 0.25 mM",,kcat,0.0768 s⁻¹ and 0.0481 s⁻¹
CCOC(=O)[C@@H]1Cc2c(cc([N+](=O)[O-])cc2[N+](=O)[O-])[C@H](O)[C@]12C(=O)Nc1ccc(Br)cc12,"KIT (Homo sapiens, UniProt P10721, D816V)","binding, competition with immobilised ligand",,0.1 µM,,remaining binding,84%

# A few entries again:
Compound,target or system,test,system,setting,scale,quantity,result
CCCCCc1cc(O)cc(O)c1C(=O)O,"uncharacterized protein (Cannabis sativa, UniProt A0A803QQQ8)","substrate, LC-MS product formation",,"30 °C, together with: UDP-glucose 1 mM",,Km,37.4 ± 20.2 µM
CC(C)CC(O)(CC(C)C)c1cn(C(=O)N2CCCC2)nn1,"Neutral cholesterol ester hydrolase 1 (Mus musculus, UniProt Q8BLF1)","probe labelling, inhibitor, competitive ABPP-SILAC, measured: Aadacl1",mouse T cells,"concentration not given, 4 h, single peptide","baseline: treated over DMSO cells, lower = stronger inhibition",SILAC activity ratio,1.25 and 1.43 and 1.3 and 1.23 and 1.02 and 1.33
N[C@@H](Cc1ccccc1)P(=O)(O)O,"PAL1 (Petroselinum crispum, UniProt P24481, Y110F)","binding, ITC",,,,-TΔS,1.5 kcal/mol
